Results of several laboratories.
Every numbered part comes from another study and shows a few of its results, in no order. Substitutions count along the parent as printed.

Series 1
Target: Histone acetyltransferase KAT6A, winged helix 2, GST fusion (KAT6A, Homo sapiens, UniProt Q92794, residues 85-181)
Method: protein binding microarray
Molecule type: double-stranded DNA, one strand shown
Sample: in vitro
Tested at: not given
Notes: 8-mer, flanks averaged, mean of 2 arrays, mostly near background
Relative to: not given
Direction: higher = stronger binding
Residues (chain): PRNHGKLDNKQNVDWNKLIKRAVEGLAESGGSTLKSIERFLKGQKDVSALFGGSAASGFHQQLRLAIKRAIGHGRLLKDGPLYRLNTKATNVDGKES
| Oligonucleotide | E-score |
| --- | --- |
| GTCTTCGA | 0.13 |
| ATGCAATG | 0.0912 |
| AAATTTTG | -0.0834 |
| CGGACGAC | 0.0474 |
| ACAGTGTC | -0.149 |
| AGTAGCCA | -0.16 |
| AACAATCG | -0.0989 |
| CTGAGGTC | -0.024 |
| ACATTGAT | -0.101 |
| AAATTCTG | -0.0328 |
| AAGATCCG | -0.133 |
| CAAGCATC | -0.0426 |
| CATACGTA | -0.116 |
| AGGATAAG | -0.0318 |
| TCCGTCGA | -0.0154 |
| CCGTTGCC | 0.0639 |
| AAATCGCC | 0.125 |
| ACGAGTAC | -0.0856 |
| TAGATCGA | -0.131 |
| GTAGGATA | -0.161 |
| CACACGGA | 0.0801 |
| AAGTAGGG | -0.0434 |
| ATCATCGG | 0.0529 |
| ACAAGAGT | -0.0994 |
| CACGGCTG | -0.0261 |

Series 2
Target: PABPC1L2, full length, GST fusion (mouse, UniProt A0ABA7IW68)
Method: RNAcompete
Molecule type: RNA
Sample: in vitro
Tested at: 20 nM
Notes: 7-mer, probes averaged, single round
Relative to: mean of 7-mers
Direction: higher = stronger binding
Target sequence (chain): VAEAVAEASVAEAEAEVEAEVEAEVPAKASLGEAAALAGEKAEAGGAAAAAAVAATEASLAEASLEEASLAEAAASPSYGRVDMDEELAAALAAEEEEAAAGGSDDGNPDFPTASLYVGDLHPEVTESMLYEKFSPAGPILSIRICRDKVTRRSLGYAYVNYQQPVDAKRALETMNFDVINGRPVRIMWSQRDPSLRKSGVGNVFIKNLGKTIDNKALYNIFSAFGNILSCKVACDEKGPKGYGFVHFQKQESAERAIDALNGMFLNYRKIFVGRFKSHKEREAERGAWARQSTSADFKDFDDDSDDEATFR
| Oligonucleotide | 7-mer Z-score |
| --- | --- |
| UGGGACA | 0.254 |
| ACAGGAG | 0.209 |
| UUUCUUA | -0.335 |
| UCACGCA | -0.0935 |
| GUCUUUU | -0.219 |
| CGCGCAC | -0.329 |
| UUGUUCC | -0.476 |
| ACCUAGG | -0.153 |
| UAAGGUC | -0.133 |
| AAUCGCG | 0.0877 |
| UCUUAAU | -0.269 |
| GAGUCGG | -0.0899 |
| CAGACCA | 0.155 |
| GACUUUG | -0.284 |
| UUACGAA | 0.0515 |
| GAGAGUA | -0.11 |
| ACGGCGG | 0.343 |
| UUGACCA | 0.0968 |
| UACUCGA | -0.213 |
| UACCCGC | -0.345 |
| CACCAGU | -0.195 |
| ACCAGGC | 0.0261 |
| UGGAAUG | -0.0464 |
| AAGUCAA | 0.0895 |

Series 3
Target: CCNB3, cyclin fold, Cln2 fusion (human)
Method: yeast growth competition, sequencing
Sample: yeast
Notes: weak parent motif
Relative to: not given
Direction: higher = stronger binding
Starting sequence: GMNC docking peptide (human); KNAKRNLSSEFAN; partner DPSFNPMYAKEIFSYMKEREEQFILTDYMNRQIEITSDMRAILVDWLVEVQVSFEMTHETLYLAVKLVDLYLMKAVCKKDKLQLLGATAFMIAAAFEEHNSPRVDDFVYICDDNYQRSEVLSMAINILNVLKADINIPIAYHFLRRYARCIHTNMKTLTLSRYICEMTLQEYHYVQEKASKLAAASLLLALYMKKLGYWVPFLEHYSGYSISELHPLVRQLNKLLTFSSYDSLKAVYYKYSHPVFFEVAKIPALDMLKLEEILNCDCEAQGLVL
| Variant | normalised enrichment score |
| --- | --- |
| R5V | -0.307 |
| E10D | -0.153 |
| K4E | -0.225 |
| K4P | 0.348 |
| N2F | 0.469 |
| L7D | 0.154 |
| N2A | 0.339 |
| N2L | 0.664 |
| N2V | -0.0679 |
| A12S | 0.0542 |
| L7N | -0.133 |
| F11L | -0.0363 |
| K4F | 0.171 |
| A3W | 0.528 |
| L7P | 0.129 |
| E10Q | 0.477 |
| R5I | 0.2 |
| N2T | 0.495 |
| F11H | -0.0716 |
| R5W | 0.114 |
| F11Y | 0.0189 |
| N2H | 0.251 |
| L7E | -0.0492 |
| A12E | 0.342 |
| K4L | 0.205 |

Series 4
Target: TAR DNA-binding protein 43, full length, His tag (TARDBP, Homo sapiens, UniProt Q13148, residues 1-414)
Method: RNA Bind-n-Seq
Molecule type: RNA
Sample: in vitro
Tested at: 20 nM
Notes: 6-mer, flanks averaged, single round
Added: 150 mM LiCl
Relative to: input library
Direction: higher = stronger binding
| Oligonucleotide | 6-mer enrichment (R) |
| --- | --- |
| UCAGGG | 0.991 |
| GGAUCU | 0.902 |
| CGUGGA | 1.02 |
| ACUGGA | 0.88 |
| AUACAC | 0.864 |
| CUUCCG | 0.831 |
| CUACAA | 0.843 |
| GCUUAG | 0.918 |
| AGUCCU | 0.857 |
| AUGAAG | 0.975 |
| CUUACG | 0.841 |
| AUCGUA | 0.879 |
| ACACUU | 0.89 |
| CGACUC | 0.819 |
| CAAGCU | 0.819 |
| GGGGUG | 1.64 |
| CCGUCC | 0.912 |
| GUAGGA | 1.03 |
| ACUAUU | 0.95 |
| GCCCCA | 1.13 |
| CCACGC | 0.926 |
| ACUGCA | 0.856 |
| UAAAUG | 1 |
| AGCCAA | 0.867 |
| ACAUAG | 0.843 |

Series 5
Target: Sal-like protein 4, full length isoform B (SALL4, Homo sapiens, UniProt Q9UJQ4-2, residues 1-616)
Method: universal PBM
Molecule type: double-stranded DNA, one strand shown
Sample: in vitro
Tested at: not given
Notes: 8-mer, flanks averaged, mean of replicates
Direction: higher = stronger binding
| Oligonucleotide | E-score |
| --- | --- |
| ATTATGCA | 0.314 |
| ACTAAGGA | 0.00724 |
| GGCCGTAA | -0.183 |
| CATATTCG | 0.231 |
| AGATTAAG | 0.131 |
| ACAGACAT | 0.199 |
| AATCACTC | 0.131 |
| TAATAGTA | 0.308 |
| CGTCATCC | -0.168 |
| AACAGACC | 0.0711 |
| ATTTTAGA | 0.215 |
| CATATGCC | 0.2 |
| CTCCGAAA | 0.0719 |
| CGACGTCC | -0.299 |
| GGTTCGGA | -0.243 |
| GAATACTC | 0.0191 |
| AAATAGAG | 0.193 |
| TAAGACGA | 0.0546 |
| GCAGGTAC | -0.212 |
| AATATTGA | 0.416 |
| CGGTGTGA | -0.342 |
| TCCTGTAA | 0.224 |
| GCCTTTGA | -0.0476 |
| CCCGTCGC | -0.307 |

Some of these lines once more (series 1):
| Oligonucleotide | E-score |
| --- | --- |
| AAATTTTG | -0.0834 |
| ATCATCGG | 0.0529 |
| CTGAGGTC | -0.024 |
| CCGTTGCC | 0.0639 |
| ACAAGAGT | -0.0994 |
| CATACGTA | -0.116 |
| TCCGTCGA | -0.0154 |
| CGGACGAC | 0.0474 |
| AGTAGCCA | -0.16 |
| AGGATAAG | -0.0318 |
| TAGATCGA | -0.131 |
| ACATTGAT | -0.101 |
| AAGTAGGG | -0.0434 |
| CAAGCATC | -0.0426 |
| ACAGTGTC | -0.149 |
| AAATCGCC | 0.125 |
| GTCTTCGA | 0.13 |
